Results collected from several papers.
Every numbered part comes from another study and shows a few of its results, in no order.

Series 1
Target: Fragile X messenger ribonucleoprotein 1, C-terminal low-complexity region (Fmr1, Mus musculus, UniProt P35922)
Method: RNA Bind-n-Seq
Form: RNA
Medium: in vitro
Concentration: 200 nM
Notes: whole 134-nt RNA, ends assumed
Added: 150 mM KCl
Reference: input library
Reading: higher = stronger binding
Measurement: log2 enrichment
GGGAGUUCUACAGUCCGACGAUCUGGGAGGUGGAUUUUGUUUAUUUUUUUAGCUCAUUUCCAGGGGUGGGAAUUAUUUUUUAAUAUGUGUCAUGAAUAAAGUUGUUUUUGAAAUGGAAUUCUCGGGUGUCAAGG: 0.3
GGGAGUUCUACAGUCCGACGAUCUGGAUUAGAGAGAAAUUGAAUUUUUUCUUACUUGAACUCCUACUAAAAAGUGAACUAAAUAUUUUAUUGUAGUAAUGGCAUAGAGGAGCCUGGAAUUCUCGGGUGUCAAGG: -0.588
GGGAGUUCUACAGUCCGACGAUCCCUGUGCUACACAUCGUAUGUACCGAAUCGGGGUUUUUUGGGGUUUUUUGGGGUUUUUUGGAAAGUAUUAUGUUACGCCGUUCGGAUCUGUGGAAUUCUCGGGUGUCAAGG: -0.354
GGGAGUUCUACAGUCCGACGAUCACCAUGUAGGUGGGCAUCUUUGGGAAGUGGGGCAAGGGGGGGAUAGGGAGGGGGGUAACACUUUGGGAACAGGUGGUCCCAGGUCGUUUCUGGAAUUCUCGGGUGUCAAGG: 0.732
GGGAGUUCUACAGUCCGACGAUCAGUCCUGUGCUACACAUCGUAUGUACCGAAUCGGGAAAAAGGGAAAAAAAGGGAGGGAAAGUAUUAUGUUACGCCGUUCGGAUCUGCACUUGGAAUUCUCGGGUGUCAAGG: 0.423
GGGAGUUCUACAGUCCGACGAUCCACAGACAACACGCACCCACACAGACACAGAGGGAAAAAGUUGGGAUGGGGACAGGGUGCACAGCAGGGCGGGGUAGGACCCCAGCCCCUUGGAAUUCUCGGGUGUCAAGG: 0.458
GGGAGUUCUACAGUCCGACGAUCCAAGUCCUGUGCUACACAUCGUAUGUACCGAAUCGGGAAAGGGAAAAAGGGUGGGAAAGUAUUAUGUUACGCCGUUCGGAUCUGCACUUCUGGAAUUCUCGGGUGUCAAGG: 0.859
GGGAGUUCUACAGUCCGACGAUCGUCCUGUGCUACACAUCGUAUGUACCGAAUCGGGGAAAAAGGGAAAAAGGAAAAAGGGAAAGUAUUAUGUUACGCCGUUCGGAUCUGCACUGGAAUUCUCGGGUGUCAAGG: -0.247

Series 2
Target: Sal-like protein 4, full length isoform A (SALL4, Homo sapiens, UniProt Q9UJQ4, residues 1-1053)
UniProt Q9UJQ4, sequence (whole entry, looked up): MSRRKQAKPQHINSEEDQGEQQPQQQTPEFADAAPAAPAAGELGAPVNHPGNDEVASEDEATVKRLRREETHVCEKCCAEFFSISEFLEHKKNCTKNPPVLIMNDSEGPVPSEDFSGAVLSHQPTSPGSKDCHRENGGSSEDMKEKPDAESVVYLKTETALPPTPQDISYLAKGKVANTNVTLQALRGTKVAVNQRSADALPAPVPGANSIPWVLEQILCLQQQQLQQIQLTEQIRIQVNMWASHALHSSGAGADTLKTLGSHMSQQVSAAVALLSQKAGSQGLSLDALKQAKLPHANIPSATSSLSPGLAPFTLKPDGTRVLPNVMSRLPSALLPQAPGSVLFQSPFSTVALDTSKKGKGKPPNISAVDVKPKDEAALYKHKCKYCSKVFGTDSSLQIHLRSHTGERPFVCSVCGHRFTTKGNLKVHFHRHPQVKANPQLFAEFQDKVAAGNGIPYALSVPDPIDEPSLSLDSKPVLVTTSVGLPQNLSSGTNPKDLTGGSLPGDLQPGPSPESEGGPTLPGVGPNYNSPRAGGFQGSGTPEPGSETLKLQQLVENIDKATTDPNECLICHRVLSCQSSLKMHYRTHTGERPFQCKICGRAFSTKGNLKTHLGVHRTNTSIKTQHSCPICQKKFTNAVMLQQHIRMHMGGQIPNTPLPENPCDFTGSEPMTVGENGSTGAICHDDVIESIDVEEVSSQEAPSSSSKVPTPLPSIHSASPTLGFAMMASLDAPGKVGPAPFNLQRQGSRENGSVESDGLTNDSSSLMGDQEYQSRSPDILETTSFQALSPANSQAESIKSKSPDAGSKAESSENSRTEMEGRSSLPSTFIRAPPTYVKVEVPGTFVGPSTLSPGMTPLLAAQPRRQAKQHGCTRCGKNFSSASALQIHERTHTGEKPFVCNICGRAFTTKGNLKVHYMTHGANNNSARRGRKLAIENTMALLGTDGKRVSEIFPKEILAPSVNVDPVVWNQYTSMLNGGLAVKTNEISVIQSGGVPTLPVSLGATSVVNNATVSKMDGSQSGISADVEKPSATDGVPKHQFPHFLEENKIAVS
Method: universal PBM
Form: double-stranded DNA, one strand shown
Medium: in vitro
Concentration: 600 nM
Notes: 8-mer, flanks averaged, mean of replicates
Reading: higher = stronger binding
Measurement: E-score
GACACCAA: 0.157
CGCGATGC: -0.28
GCGGTTTA: -0.119
CTGGATTA: 0.184
ACCGATTA: 0.0649
ACGGATCA: -0.0543
AGGATGGG: -0.291
CTTTAGGC: -0.133

Series 3
Cell line: HEK-293T
Read-out: pseudovirus infection
Method: FDA-approved drug library screen
Organism: VSV pseudotyped with SARS-CoV-2 spike
Concentration: 10 µM
Time: 16 h
Reference: vehicle-treated
Measurement: GFP-positive cells
CC(C)[C@H]1CC[C@H](C(=O)N[C@H](Cc2ccccc2)C(=O)O)CC1: 71.9%
NCC1(CC(=O)O)CCCCC1: 87.3%
OCc1ccccc1: 89.6%
CN(C)CC[C@@H](c1ccc(Cl)cc1)c1ccccn1: 66.3%
OCCN1CCN(CCCN2c3ccccc3Sc3ccc(Cl)cc32)CC1: 17.9%

Series 4
Organism: SARS-CoV-2
Read-out: cytopathic effect
Cell line: Vero E6
Concentration: 10 µM
Measurement: inhibition
Cc1cc(C)cc(N2C(=O)CC(Sc3nnc[nH]3)C2=O)c1 (stereo not drawn): 11.4%
CO/N=C(\C(=O)N[C@@H]1C(=O)N2C(C(=O)O)=C(CSC(=O)c3ccco3)CS[C@H]12)c1csc(N)n1.Cl: 2.3%
O=C(O)CCCCCCCCCCCCCCc1ccc(I)cc1: 1.3%
CCOC(=O)c1c(N)sc(-c2ccccc2)c1C: 3.7%
CC(=O)OC[C@H]1O[C@@H]([S-])[C@H](OC(C)=O)[C@@H](OC(C)=O)[C@@H]1OC(C)=O.CCP(CC)CC.[Au+]: -29.9%

Series 5
Target: Replicase polyprotein 1ab, polymerase (rep, Severe acute respiratory syndrome coronavirus 2, UniProt P0DTD1)
Read-out: enzyme activity
Mode: inhibitor
Concentration: 20 µM
Measurement: inhibition
C[C@@H](Oc1ccc2[nH]nc(/C=C/c3cnn(CCO)c3)c2c1)c1c(Cl)cncc1Cl: -6.22%
C[N@+]1(CC2CC2)CC[C@]23c4c5ccc(O)c4O[C@H]2C(=O)CC[C@@]3(O)[C@H]1C5: -16%
Clc1ccc(C(c2ccccc2Cl)C(Cl)Cl)cc1 (stereo not drawn): 0.35%
CN[C@H](CC(C)C)C(=O)N[C@H]1C(=O)N[C@@H](CC(N)=O)C(=O)N[C@H]2C(=O)N[C@H]3C(=O)N[C@H](C(=O)N[C@H](C(=O)O)c4cc(O)cc(O)c4-c4cc3ccc4O)[C@H](O[C@H]3C[C@](C)(N)[C@@H](O)[C@H](C)O3)c3ccc(c(Cl)c3)Oc3cc2cc(c3O[C@@H]2O[C@H](CO)[C@@H](O)[C@H](O)[C@H]2O[C@H]2C[C@](C)(NCc3ccc(-c4ccc(Cl)cc4)cc3)[C@@H](O)[C@H](C)O2)Oc2ccc(cc2Cl)[C@H]1O: 98.9%
Cc1nc(C)c(Cl)c(O)c1Cl: -2.73%
C#CCOC(=O)C1=CCCN(C)C1: -0.38%
COc1cc(C[C@H]2C(=O)OC[C@@H]2Cc2ccc(OC)c(OC)c2)ccc1O: -1.51%
C[C@@]1(O)[C@H](O)[C@@H](CO)O[C@H]1n1cnc2c(NC3CCCC3)nc(Cl)nc21: -0.63%
COc1cc(-n2c(=S)[nH]c3ccccc3c2=O)c(Cl)cc1Cl: 0.72%
CS(=O)(=O)c1ccc(-c2cnc(NCc3ccco3)n3cnnc23)cc1: -4.84%
NC(=O)c1[nH]cnc1O: -3.89%
NC(=O)c1ncn([C@@H]2O[C@H](CO)[C@@H](O)[C@H]2O)n1: -2.47%
NCC1CC(=O)N(Cc2ccccc2)C1 (stereo not drawn): 0.31%
NCCC(=O)N[C@@H](Cc1c[nH]cn1)C(=O)O: 21.1%
CCOC(=O)[C@H](CCc1ccccc1)N[C@@H](C)C(=O)N1Cc2cc(OC)c(OC)cc2C[C@H]1C(=O)O: 0.27%
COc1cc2c(cc1OC)CN(CCc1ccc(NC(=O)c3cccc4c(=O)c5cccc(OC)c5[nH]c34)cc1)CC2: 93%
CCCCCCCCCCCCc1ccc(S(=O)(=O)Nc2nncs2)cc1: 7.35%
C/C(=C\C(N)C(=O)O)CP(=O)(O)O (stereo not drawn): 3.54%
O=C(O)C1=C(CSc2nnnn2CS(=O)(=O)O)CS[C@@H]2[C@H](NC(=O)[C@H](O)c3ccccc3)C(=O)N12: 1.9%
C[C@@H](O)[C@H]1C(=O)N2C(C(=O)OCOC(=O)C(C)(C)C)=C(SC3CN(C4=NCCS4)C3)[C@H](C)[C@H]12: -2.62%
Cc1cc(Nc2nc(N[C@@H](C)c3ncc(F)cn3)ncc2Cl)[nH]n1: -3.29%
Cc1ccc(NCCCc2ccccc2)c(N)c1: -0.31%
CCNC(=O)c1noc(-c2cc(C(C)C)c(O)cc2O)c1-c1ccc(CN2CCOCC2)cc1: -4.49%
CCCCCCN(CCCCCC)C(=O)Cc1c(-c2ccc(F)cc2)[nH]c2ccccc12: -3.49%
CNCCC=C1c2ccccc2CCc2ccccc21: 17.5%

Excerpt of the above (series 3):
OCc1ccccc1: 89.6%
OCCN1CCN(CCCN2c3ccccc3Sc3ccc(Cl)cc32)CC1: 17.9%
NCC1(CC(=O)O)CCCCC1: 87.3%
CC(C)[C@H]1CC[C@H](C(=O)N[C@H](Cc2ccccc2)C(=O)O)CC1: 71.9%
